Results of several laboratories.
Lines come from different studies, so protocols differ. Several values in a cell are separate wells, animals, samples, runs or records.
Target: Dual specificity mitogen-activated protein kinase kinase 3 (MAP2K3, Homo sapiens, UniProt P46734)

Compound | test | test system | conditions | how to read | endpoint | result
Cc1c[nH]c2nccc(-c3ccc(C(=O)N[C@@H]4c5c(F)cc(C(F)F)cc5C[C@@H]4O)cn3)c12 | binding, competition with immobilised ligand |  | 3 µM |  | remaining binding | 4.5%
O=C(Cc1ccc(OCc2ccccc2)cc1)NC1(C(=O)O)CCN(C(=O)c2ccc(-c3cccc(Cl)c3)cc2)CC1 | enzyme activity, inhibitor |  | 10 µM |  | activity vs control | 113%
CCn1cc(C(=O)O)c(=O)c2c(N)c(F)c(NC3CCCCC3)cc21 | kinase activity |  | 0.1 µM, added: ATP at Km |  | inhibition | -15.3%
CCN1CCN(Cc2ccc(C(=O)Nc3ccc(C)c(NCc4cnc5[nH]ccc5c4OC)c3)cc2C(F)(F)F)CC1 | binding, competition with immobilised ligand |  | 1 µM |  | remaining binding | 59%
COc1cc(Nc2nc(C)cc(-c3cnn4nc(OC)ccc34)n2)cc(C(F)(F)F)c1 | inhibitor |  | 1 µM, MEK3 | relative to: control | remaining activity | 86%
Cc1ccc(-c2c(/C=C(\C#N)C(=O)NC(C)C)n(CCCO)c3ncnc(N)c23)cc1 | cell-free assay, competition with immobilised ligand |  | 1 µM |  | remaining binding | 93%
Nc1ncc2c(n1)-c1c([nH]c3ccc(C4=CCOCC4)cc13)CCC2 | binding, competition with immobilised ligand |  | 1 µM |  | remaining binding | 84%
COc1c(Cl)cccc1Nc1c(-c2ccncc2C#C[C@@]2(C)CCCN2C(=O)/C=C/CN(C)C)[nH]c2c1C(=O)NCC2 | binding, competition with immobilised ligand |  | 3 µM |  | remaining binding | 69%
Nc1ncc(-c2cc(-c3cnn(CC(F)(F)F)c3)ncc2F)nc1C(=O)NC1CNCC(F)C1 (stereo not shown) | enzyme activity |  | 1 µM | relative to: DMSO control | remaining activity | 117%
Cc1cccc(O[C@H]2CCC[C@@H](C(C)CNCc3ccncc3)C2)c1 (relative stereo) | enzyme activity, inhibitor |  | 1 µM |  | inhibition | -4%
COc1cc(Nc2nccc(-c3cnn4nc(OC)ccc34)n2)cc(C(F)(F)F)c1 | binding, competition with immobilised ligand |  | 1 µM |  | remaining binding | 68%
CNC1C[S+]2CC[S+]3CC[S+](C1)[Ru-4]321([N]=C=S)[n]2c3ccc(OC)cc3c3c4c(c5cc(F)c[n+]1c5c32)C(=O)NC4=O (stereo not shown) | KinomeScan |  | 0.1 µM | relative to: untreated | remaining binding | 87%
N[C@H]1CC[C@H](Nc2nccc(-c3cccnc3Oc3ccc(NC(=O)NC4CC4)c4ccccc34)n2)CC1 | kinobead competition pulldown | HEK293/HCT116 lysate mixture | 10 µM, 1 h, 4 °C | lower = stronger competition | log2 LFQ intensity | 18.2 and 18.8 and 22 and 21.6
C=CC(=O)N1CCc2ccc(-n3c(=O)ccc4cnc5ccc(-c6cnn(C)c6)cc5c43)cc21 | KINOMEscan |  | 1 µM | relative to: DMSO control | remaining binding | 70%
CN1CC[C@@H](COc2cnc(C#N)cc2-c2ccn3nc(NC(=O)C4CC4)cc3c2)C1 | enzyme activity, inhibitor |  | 1 µM |  | inhibition | -3%
CC(C)=CC1OC(C)(C)C2C=C3C(=O)C(Cl)=CC(O)C3C3C(O)C4OC4C(=O)C132 (stereo not shown) | cell-free assay, competition with immobilised ligand |  | 10 µM |  | remaining binding | 73%
CNC(=O)C1CCN(c2cc(C)c(F)cc2NC(=O)c2ccc(-c3cc(O)ccc3C)c(C)c2)CC1 | binding, competition with immobilised ligand |  | 1 µM |  | remaining binding | 99%
C=CC(=O)N1CCCC(n2c(=O)c3ncccc3n(Cc3ccc(Oc4ccccc4)cc3)c2=O)C1 (stereo not shown) | cell-free assay, competition with immobilised ligand |  | 1 µM |  | remaining binding | 70%
Cc1cnc2nc1Nc1cccc(c1)COC/C=C/COCc1cc(ccc1OCCN1CCOCC1)N2 | binding, competition with immobilised ligand |  | 0.1 µM |  | remaining binding | 75%

Repeated from above:
Compound | test | test system | conditions | how to read | endpoint | result
CC(C)=CC1OC(C)(C)C2C=C3C(=O)C(Cl)=CC(O)C3C3C(O)C4OC4C(=O)C132 (stereo not shown) | cell-free assay, competition with immobilised ligand |  | 10 µM |  | remaining binding | 73%
